# Published values pooled from the literature.
# A part holds a random share of what one study measured. Numbers after ± are the reported error.

# Set 1 — observed: dynamic mass redistribution; action: antagonist; cells: HT-29
# SMILES: COC(=O)c1cnn(-c2ccc(F)cc2F)c1C=NNC(=S)NC(C)(C)C
# Target: G-protein coupled receptor 35 (GPR35, Homo sapiens, UniProt Q9HC97)
# UniProt Q9HC97, sequence (whole entry, looked up): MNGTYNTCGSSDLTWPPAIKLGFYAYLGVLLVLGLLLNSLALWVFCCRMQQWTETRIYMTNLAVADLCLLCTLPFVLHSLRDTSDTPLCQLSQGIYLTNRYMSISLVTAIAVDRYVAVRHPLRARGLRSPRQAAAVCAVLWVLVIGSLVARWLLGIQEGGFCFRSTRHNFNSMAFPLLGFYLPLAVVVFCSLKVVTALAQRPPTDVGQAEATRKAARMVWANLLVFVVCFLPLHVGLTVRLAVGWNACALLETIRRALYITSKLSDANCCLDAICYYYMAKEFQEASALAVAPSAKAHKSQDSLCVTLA
setting,IC50 [µM]
added: gentisate 0.5 mM,6.65 ± 0.49
added: 2 µM cromolyn disodium,13.5 ± 1.6
added: DHICA 64 µM,9.17 ± 0.7
added: L-DOPA 1 mM,7.46 ± 0.54
added: 3-nitro-L-tyrosine 0.5 mM,6.74 ± 0.39

# Set 2 — observed: GTPγS binding; action: positive allosteric modulator; added: EC20 glutamate
# Target: Metabotropic glutamate receptor 2 (GRM2, Homo sapiens, UniProt Q14416)
# UniProt Q14416, sequence (whole entry, looked up): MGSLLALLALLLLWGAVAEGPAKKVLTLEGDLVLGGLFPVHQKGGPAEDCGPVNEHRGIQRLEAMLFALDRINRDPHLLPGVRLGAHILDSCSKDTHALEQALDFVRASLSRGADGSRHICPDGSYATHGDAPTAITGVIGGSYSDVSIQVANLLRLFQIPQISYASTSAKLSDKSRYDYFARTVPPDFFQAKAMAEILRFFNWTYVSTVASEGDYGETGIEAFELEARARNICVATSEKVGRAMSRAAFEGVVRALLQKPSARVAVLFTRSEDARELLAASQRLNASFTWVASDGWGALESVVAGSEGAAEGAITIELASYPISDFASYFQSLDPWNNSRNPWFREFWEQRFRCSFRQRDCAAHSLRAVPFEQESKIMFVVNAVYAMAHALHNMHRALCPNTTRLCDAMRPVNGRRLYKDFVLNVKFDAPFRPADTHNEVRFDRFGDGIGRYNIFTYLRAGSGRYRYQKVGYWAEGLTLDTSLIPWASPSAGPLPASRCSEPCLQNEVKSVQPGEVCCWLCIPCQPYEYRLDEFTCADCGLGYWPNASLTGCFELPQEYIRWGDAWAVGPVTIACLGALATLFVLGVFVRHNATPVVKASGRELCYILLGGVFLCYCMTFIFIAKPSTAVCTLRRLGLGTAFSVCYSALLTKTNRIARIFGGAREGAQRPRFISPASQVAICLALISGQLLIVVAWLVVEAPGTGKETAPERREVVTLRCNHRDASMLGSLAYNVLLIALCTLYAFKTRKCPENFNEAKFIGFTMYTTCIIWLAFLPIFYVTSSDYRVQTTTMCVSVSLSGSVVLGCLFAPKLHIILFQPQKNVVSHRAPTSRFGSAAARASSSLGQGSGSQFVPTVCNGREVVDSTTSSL
SMILES,EC50 [µM]
CCCCn1ccn2c(-c3ccc(OCC4CC4)c(Cl)c3)nc(C)c2c1=O,0.327
CCCCn1ccn2c(-c3ccc(Oc4ccc(C)nc4C)c(F)c3)c(C)nc2c1=O,0.029
CCCCn1ccn2c(-c3ccc4c(ccn4-c4cccnc4)c3)c(C)nc2c1=O,0.059

# Mixed results
Structure (SMILES),target or system,assay,system,setting,scale,measurement,result
CNC(=S)NN=Cc1ccc(OC)cc1,Leishmania major,parasite growth,J774.A1,"72 h, intracellular, amastigote",,IC50,26.7 µM
CCCC(CCC)C(=O)O,,,"mouse, pilocarpine-induced seizures","oral, 300 mg/kg, 120 min after pilocarpine",direction not given,Racine score,1.9 ± 0.57
CNC(=S)NN=Cc1ccc(Br)cc1,Leishmania major,annexin V/PI flow cytometry,promastigotes,IC50,,apoptotic cells,37.7%
CNC(=S)NN=Cc1ccc(OC)c(OC)c1,Leishmania major,annexin V/PI flow cytometry,promastigotes,IC50,,apoptotic cells,36.2%

# Repeated from above (set 1):
setting,IC50 [µM]
added: 3-nitro-L-tyrosine 0.5 mM,6.74 ± 0.39
